Assay results pooled from the literature.
Each line is one published result; not all experiments were run side by side. ± marks the error that the study gave.
Complement C3: Complement C3 (Homo sapiens, UniProt P01024)
UniProt P01024, sequence (whole entry, looked up): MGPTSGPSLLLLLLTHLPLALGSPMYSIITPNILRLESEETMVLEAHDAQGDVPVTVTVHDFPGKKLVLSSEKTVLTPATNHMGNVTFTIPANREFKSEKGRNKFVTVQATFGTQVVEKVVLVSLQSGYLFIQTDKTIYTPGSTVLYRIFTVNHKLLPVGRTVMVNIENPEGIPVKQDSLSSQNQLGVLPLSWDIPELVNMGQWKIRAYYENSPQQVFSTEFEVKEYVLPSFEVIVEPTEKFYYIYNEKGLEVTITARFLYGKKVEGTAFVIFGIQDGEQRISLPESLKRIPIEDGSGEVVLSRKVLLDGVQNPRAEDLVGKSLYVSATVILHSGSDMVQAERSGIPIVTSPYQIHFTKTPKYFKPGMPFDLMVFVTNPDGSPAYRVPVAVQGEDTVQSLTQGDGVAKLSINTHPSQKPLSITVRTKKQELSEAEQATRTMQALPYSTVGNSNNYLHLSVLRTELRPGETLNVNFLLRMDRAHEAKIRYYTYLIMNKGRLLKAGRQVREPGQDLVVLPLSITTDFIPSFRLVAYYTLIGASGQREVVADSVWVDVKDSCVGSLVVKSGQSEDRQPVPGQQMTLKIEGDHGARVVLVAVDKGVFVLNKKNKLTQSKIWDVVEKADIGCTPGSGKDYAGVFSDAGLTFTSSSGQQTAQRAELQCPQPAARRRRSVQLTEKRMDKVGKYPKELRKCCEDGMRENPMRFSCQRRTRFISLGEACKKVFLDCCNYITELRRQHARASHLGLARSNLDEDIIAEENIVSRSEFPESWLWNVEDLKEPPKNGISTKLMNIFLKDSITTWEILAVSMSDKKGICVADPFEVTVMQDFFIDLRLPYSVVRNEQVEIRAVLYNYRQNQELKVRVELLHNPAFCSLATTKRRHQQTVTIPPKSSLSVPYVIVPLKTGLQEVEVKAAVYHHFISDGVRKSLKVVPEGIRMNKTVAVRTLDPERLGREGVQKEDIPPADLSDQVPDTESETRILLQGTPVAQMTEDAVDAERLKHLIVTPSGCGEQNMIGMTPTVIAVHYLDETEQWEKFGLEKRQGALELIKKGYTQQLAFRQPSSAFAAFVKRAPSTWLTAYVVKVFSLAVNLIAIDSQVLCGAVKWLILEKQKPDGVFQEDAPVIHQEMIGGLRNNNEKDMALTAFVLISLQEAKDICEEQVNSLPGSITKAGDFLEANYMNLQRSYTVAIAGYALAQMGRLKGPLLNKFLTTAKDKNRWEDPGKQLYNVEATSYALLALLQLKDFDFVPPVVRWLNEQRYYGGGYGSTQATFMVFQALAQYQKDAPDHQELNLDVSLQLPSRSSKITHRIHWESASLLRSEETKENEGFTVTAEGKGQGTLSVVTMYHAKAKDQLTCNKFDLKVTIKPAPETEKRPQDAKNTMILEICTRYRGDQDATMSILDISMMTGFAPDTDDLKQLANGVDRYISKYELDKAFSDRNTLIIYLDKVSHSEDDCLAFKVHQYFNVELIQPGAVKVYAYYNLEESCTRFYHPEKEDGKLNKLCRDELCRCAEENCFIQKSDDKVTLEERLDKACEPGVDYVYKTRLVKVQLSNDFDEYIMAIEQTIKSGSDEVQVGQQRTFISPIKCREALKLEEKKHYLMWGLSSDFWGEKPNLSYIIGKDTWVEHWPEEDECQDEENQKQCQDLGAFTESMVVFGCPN
lecA: PA-I galactophilic lectin (lecA, Pseudomonas aeruginosa, UniProt Q05097)
UniProt Q05097, sequence (whole entry, looked up): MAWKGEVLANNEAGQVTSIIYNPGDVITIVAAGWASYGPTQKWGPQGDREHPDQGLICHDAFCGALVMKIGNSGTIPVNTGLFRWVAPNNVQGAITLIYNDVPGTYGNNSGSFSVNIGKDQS
UniProt Q9SZU7, sequence (whole entry, looked up): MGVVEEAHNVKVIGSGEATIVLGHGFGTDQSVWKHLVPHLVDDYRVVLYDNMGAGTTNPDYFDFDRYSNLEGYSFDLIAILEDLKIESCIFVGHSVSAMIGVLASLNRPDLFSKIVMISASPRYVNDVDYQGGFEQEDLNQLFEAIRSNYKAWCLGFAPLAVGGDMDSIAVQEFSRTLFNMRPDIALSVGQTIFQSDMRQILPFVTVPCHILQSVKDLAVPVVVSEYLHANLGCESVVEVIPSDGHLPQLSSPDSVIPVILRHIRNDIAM
UniProt Q14781, sequence (whole entry, looked up): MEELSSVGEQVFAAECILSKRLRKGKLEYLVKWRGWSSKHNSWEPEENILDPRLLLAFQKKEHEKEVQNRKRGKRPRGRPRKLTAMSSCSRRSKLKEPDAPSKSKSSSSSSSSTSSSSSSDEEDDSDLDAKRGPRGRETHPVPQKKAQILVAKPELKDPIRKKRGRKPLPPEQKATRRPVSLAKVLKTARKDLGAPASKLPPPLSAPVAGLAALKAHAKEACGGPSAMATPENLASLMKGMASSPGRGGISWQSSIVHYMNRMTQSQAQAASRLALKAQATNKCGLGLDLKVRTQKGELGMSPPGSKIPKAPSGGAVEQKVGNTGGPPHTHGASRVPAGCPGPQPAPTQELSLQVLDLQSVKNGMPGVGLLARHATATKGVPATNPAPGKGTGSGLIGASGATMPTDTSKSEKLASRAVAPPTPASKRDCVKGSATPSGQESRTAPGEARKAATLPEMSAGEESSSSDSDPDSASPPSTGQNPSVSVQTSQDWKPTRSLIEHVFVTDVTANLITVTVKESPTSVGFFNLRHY
UniProt Q9Y294, sequence (whole entry, looked up): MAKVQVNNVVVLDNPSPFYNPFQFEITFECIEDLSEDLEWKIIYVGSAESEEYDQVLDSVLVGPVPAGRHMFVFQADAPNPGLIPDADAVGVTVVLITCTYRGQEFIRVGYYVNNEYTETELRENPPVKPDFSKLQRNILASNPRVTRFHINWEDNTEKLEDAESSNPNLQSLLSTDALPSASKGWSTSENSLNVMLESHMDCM
UniProt Q9NXA8, sequence (whole entry, looked up): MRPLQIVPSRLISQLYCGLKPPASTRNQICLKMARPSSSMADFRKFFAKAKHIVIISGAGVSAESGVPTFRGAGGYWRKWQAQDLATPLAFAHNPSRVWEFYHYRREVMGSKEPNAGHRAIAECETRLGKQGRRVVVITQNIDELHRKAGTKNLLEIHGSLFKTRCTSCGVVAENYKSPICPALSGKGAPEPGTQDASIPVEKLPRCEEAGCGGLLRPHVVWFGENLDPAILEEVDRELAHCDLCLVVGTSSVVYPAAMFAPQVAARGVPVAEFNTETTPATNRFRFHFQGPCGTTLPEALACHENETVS
UniProt P53341, sequence (whole entry, looked up): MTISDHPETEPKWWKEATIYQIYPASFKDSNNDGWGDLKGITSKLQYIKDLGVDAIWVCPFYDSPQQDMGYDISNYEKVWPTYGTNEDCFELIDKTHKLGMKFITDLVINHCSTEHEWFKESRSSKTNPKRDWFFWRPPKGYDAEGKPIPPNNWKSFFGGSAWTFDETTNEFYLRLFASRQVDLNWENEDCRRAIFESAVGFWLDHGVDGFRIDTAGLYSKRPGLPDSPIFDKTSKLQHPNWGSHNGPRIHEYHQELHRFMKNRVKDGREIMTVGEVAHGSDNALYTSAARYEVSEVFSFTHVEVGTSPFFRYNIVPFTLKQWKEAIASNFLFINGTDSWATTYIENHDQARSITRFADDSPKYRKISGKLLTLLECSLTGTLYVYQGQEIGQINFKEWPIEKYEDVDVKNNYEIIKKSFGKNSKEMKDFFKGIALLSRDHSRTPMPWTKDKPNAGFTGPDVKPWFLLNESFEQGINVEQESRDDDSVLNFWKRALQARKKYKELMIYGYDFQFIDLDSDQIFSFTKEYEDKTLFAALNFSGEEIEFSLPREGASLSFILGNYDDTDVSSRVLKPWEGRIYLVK
UniProt Q08460, sequence (whole entry, looked up): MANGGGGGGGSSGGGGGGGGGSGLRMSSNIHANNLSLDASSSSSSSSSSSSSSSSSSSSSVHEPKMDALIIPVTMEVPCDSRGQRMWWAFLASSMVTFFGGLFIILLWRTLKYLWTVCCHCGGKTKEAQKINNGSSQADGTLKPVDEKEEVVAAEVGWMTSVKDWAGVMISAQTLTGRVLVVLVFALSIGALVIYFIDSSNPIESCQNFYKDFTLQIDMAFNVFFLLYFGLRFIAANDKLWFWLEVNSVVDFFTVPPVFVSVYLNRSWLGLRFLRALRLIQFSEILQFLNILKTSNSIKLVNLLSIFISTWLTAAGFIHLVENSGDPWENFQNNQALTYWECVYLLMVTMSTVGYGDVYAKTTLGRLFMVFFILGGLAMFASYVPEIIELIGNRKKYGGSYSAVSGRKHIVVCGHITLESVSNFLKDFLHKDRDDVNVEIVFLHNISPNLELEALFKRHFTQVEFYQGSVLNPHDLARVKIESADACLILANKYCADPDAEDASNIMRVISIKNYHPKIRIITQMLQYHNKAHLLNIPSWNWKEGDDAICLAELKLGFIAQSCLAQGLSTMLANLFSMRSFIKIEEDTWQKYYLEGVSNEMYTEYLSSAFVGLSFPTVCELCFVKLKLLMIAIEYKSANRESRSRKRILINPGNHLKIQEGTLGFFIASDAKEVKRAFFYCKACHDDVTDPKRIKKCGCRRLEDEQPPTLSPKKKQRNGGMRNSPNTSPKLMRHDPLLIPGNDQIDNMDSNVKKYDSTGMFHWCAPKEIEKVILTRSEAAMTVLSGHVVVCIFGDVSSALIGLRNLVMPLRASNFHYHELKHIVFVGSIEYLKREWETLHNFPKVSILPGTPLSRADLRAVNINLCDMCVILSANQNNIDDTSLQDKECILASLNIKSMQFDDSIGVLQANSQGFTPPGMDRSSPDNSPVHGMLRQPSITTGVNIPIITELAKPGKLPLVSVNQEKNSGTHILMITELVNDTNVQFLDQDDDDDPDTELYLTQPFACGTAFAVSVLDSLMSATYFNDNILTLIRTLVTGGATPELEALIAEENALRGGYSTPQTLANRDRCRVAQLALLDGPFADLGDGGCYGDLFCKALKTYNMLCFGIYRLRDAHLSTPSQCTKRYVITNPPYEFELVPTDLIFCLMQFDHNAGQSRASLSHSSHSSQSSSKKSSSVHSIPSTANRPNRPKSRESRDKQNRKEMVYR

| Compound | target | assay | test system | setting | Kd |
| --- | --- | --- | --- | --- | --- |
| CC(C)[C@@H]1NC(=O)[C@@H](NC(=O)[C@@H](N)CCC(N)=O)CSSC[C@@H](C(=O)N[C@@H](Cc2c[nH]c3ccccc23)C(N)=O)NC(=O)[C@H](CCC(N)=O)NC(=O)[C@H](CC(N)=O)NC(=O)[C@H](CCC(N)=O)NC(=O)CNC(=O)[C@H](Cc2c[nH]c3ccccc23)NC(=O)[C@H](CC(=O)O)NC(=O)[C@H](CCC(N)=O)NC(=O)[C@H](Cc2c[nH]c3ccccc23)NC1=O | Complement C3 | surface plasmon resonance |  | 25 °C, two-state reaction model | 0.99 µM |
| [N-]=[N+]=N[C@H]1[C@H](O)[C@@H](O)[C@H](n2cc(CO[C@@H]3O[C@H](CO)[C@H](O)[C@H](O)[C@H]3O)nn2)O[C@@H]1CO | lecA | binding, ITC |  |  | 6.2 µM |
| CC[C@H](C)[C@@H]1NC(=O)[C@H](CCC(N)=O)NC(=O)CNC(=O)[C@H]([C@@H](C)O)NC(=O)[C@H](Cc2c[nH]c3ccccc23)NC(=O)[C@H](CCCNC(=N)N)NC(=O)[C@H](C)NC(=O)[C@H](C(C)C)NC(=O)[C@H](CCCNC(=N)N)NC(=O)[C@@H]2CCCN2C(=O)[C@H](CCCNC(=N)N)NC(=O)[C@@H](Cc2c[nH]c3ccccc23)NC(=O)CSC[C@@H](C(=O)N[C@@H](CO)C(N)=O)NC(=O)[C@H](Cc2ccc(O)cc2)NC(=O)[C@H]([C@@H](C)CC)NC1=O | Plexin-B1 (Plxnb1, Mus musculus, UniProt Q8CJH3) | binding, surface plasmon resonance |  |  | no binding |
| C[C@H](NC(=O)[C@H](Cc1ccccc1)NC(=O)c1ccc(C(F)(F)F)cc1)C(=O)N[C@H](C(=O)N[C@@H](CCCC[N+](C)(C)C)C(=O)N[C@@H](CO)C(N)=O)C1CCCC1 | Chromobox protein homolog 2 (Homo sapiens, UniProt Q14781) | binding, ITC |  |  | 0.73 µM |
| C=CCCCO[C@@H]1C[C@@H](C(=O)N[C@@H](CCCNC(=N)N)C(=O)N[C@@H](CCCNC(=N)N)C(=O)N[C@@H](CCCNC(=N)N)C(N)=O)N(C(=O)[C@@H]2CCCN2C(=O)[C@@H](NC(=O)[C@@H]2C[C@H](OCC=C)CN2C(=O)[C@@H]2CCCN2C(=O)[C@@H]2CCCN2C(=O)[C@@H](NC(C)=O)C(C)C)C(C)C)C1 | Growth factor receptor-bound protein 2, N-terminal SH3 domain (GRB2, Homo sapiens, UniProt P62993) | binding, tryptophan fluorescence | PBS | 21 °C | 14.5 ± 0.75 µM |
| O=C(COc1ccc(F)cc1)N[C@@H](Cc1cn(CCNC(=O)c2ccc(S[C@@H]3O[C@H](CO)[C@H](O)[C@H](O)[C@H]3O)cc2)nn1)C(=O)NCCO | lecA | binding, SPR |  |  | 7.8 µM |
| CC(=O)Oc1c(C)c(C)c2c(c1C)CC[C@](C)(CCC[C@@H](C)CCC[C@@H](C)CCCC(C)C)O2 (racemic) | PDK3 (Homo sapiens, UniProt Q15120) | binding, fluorescence quenching |  | pH 8.0, 25 °C | 0.231 µM |
| C[n+]1ccc(/C=N/NC(=O)c2cccc(C(=O)N/N=C/c3cc[n+](C)c4ccccc34)n2)c2ccccc21 | telomeric G4 DNA hybrid-2 | binding, fluorescence titration | 100 mM KCl buffer | pH 7.2, added: labelled G4 DNA 2 nM | 0.0113 ± 0.001 µM |
| CCOC(=O)C1=CN([C@@H]2O[C@H](CO)[C@@H](O)[C@H]2O)C=CC1 | SIRT5 (Homo sapiens, UniProt Q9NXA8) | binding, ITC |  |  | 8.3 µM |
| CC[C@H](C)[C@H](NC(C)=O)C(=O)N[C@H]1CSSC[C@@H](C(=O)N[C@@H](Cc2c[nH]c3ccccc23)C(N)=O)NC(=O)[C@H](CCCNC(=N)N)NC(=O)[C@H](Cc2c[nH]cn2)NC(=O)[C@H](C)NC(=O)CNC(=O)[C@H](Cc2c[nH]c3ccccc23)NC(=O)[C@H](CC(=O)O)NC(=O)[C@H](CCC(N)=O)NC(=O)[C@H](Cc2c[nH]c3ccccc23)NC(=O)[C@H](C(C)C)NC1=O | Complement C3 | surface plasmon resonance |  | 25 °C, 1:1 binding model | 0.7 µM |
| O=P(O)(O)O[C@@H]1[C@@H](O)[C@H](O)[C@H](O)[C@H](O)[C@H]1OP(=O)(O)O | Inositol 1,4,5-trisphosphate-gated calcium channel ITPR1, N-terminal region (Itpr1, Rattus norvegicus, UniProt P29994, del318-332/R568Q) | [3H]IP3 competition binding | N-terminal fragment R568Q | Tris-EDTA medium | 0.974 µM |
| OC[C@H]1O[C@@H](OCc2cn([C@H]3[C@H](O)[C@@H](O)[C@H](c4cn([C@H]5[C@H](O)[C@@H](O)[C@H](n6cc([C@@H]7O[C@H](Cn8cc(-c9ccccc9)nn8)[C@@H](n8cc(CO[C@@H]9O[C@H](CO)[C@H](O)[C@H](O)[C@H]9O)nn8)[C@H](O)[C@H]7O)nn6)O[C@@H]5CO)nn4)O[C@@H]3Cn3cc(-c4ccccc4)nn3)nn2)[C@H](O)[C@@H](O)[C@H]1O | lecA | binding, ITC |  |  | 0.057 µM |
| CC(C)=CCC[C@](C)(O)[C@H]1CC[C@]2(C)[C@@H]1[C@H](O)C[C@@H]1[C@@]3(C)CC[C@H](O)C(C)(C)[C@@H]3CC[C@]12C | YWHAZ (Homo sapiens, UniProt P63104) | binding, BLI |  |  | 45.2 µM |
| Cc1ccc(OCC(=O)N[C@@H](Cc2cn(CCNC(=O)c3ccc(S[C@@H]4O[C@H](CO)[C@H](O)[C@H](O)[C@H]4O)cc3)nn2)C(=O)NCCO)cc1 | lecA | binding, ITC |  |  | 6.8 µM |
| CC[C@H](C)[C@H](NC(C)=O)C(=O)N[C@H]1CSSC[C@@H](C(=O)N[C@H](C(N)=O)[C@@H](C)O)NC(=O)[C@H](CCCN=C(N)N)NC(=O)[C@H](Cc2c[nH]cn2)NC(=O)[C@H](C)NC(=O)CNC(=O)[C@H](Cc2c[nH]c3ccccc23)NC(=O)[C@H](CC(=O)O)NC(=O)[C@H](CCC(N)=O)NC(=O)[C@H](Cc2ccc(O)cc2)NC(=O)[C@H](C(C)C)NC1=O | Complement C3 | binding, ITC |  | pH 7.4 | 0.556 µM |
| Nc1ncnc2c1ncn2[C@@H]1O[C@@H]2COP(=O)(O)O[C@H]3[C@@H](O)[C@H](n4cnc5c(N)ncnc54)O[C@@H]3COP(=O)(O)O[C@H]2[C@H]1O | darB (Bacillus subtilis, UniProt O31698) | binding, ITC |  |  | 0.027 µM |
| CCc1cccc2c(C(=O)COC(=O)C34CC5CC(CC(Br)(C5)C3)C4)c[nH]c12 | KAI2 (Arabidopsis thaliana, UniProt Q9SZU7) | binding, fluorescence |  |  | > 250 µM |
| C[C@H](NC(=O)[C@H](CCCCNCC(=O)O)NC(=O)[C@H](Cc1ccccc1)NC(=O)[C@H](CCC(=O)O)NC(=O)[C@@H](N)CC(=O)O)C(=O)N[C@@H](CC(=O)O)C(=O)N[C@@H](CCC(=O)O)C(=O)O | AGER (Homo sapiens, UniProt Q15109) | binding, fluorescence |  |  | 87 µM |
| CC[C@H](C)[C@H](NC(=O)[C@H](CCCNC(=N)N)NC(=O)NC[C@H](CCC(N)=O)NC(=O)NC[C@H](CC(C)C)NC(=O)NC[C@H](CCCNC(=N)N)NC(=O)NC[C@H](Cc1c[nH]c2ccccc12)NC(=O)[C@H](CCCCN)NC(=O)[C@H](CCC(=O)O)NC(C)=O)C(=O)N[C@@H](C)C(N)=O | Histone chaperone ASF1A (Homo sapiens, UniProt Q9Y294) | binding, ITC |  | pH 7.5 | 10.6 µM |
| CCCC[N+](CCCC)(CCCC)Cc1ccc(C(=O)c2ccccc2)cc1 | Kcnma1 (Mus musculus, UniProt Q08460) |  |  |  | 9.5 µM |
| C=C1C(=O)O[C@@H]2[C@H]3C(CO)=CC(=O)C3=C(C)C[C@H](OC(=O)Cc3ccc(O)cc3)[C@@H]12 | MAL12 (Saccharomyces cerevisiae S288c, UniProt P53341) | binding, fluorescence quenching |  | 30 min, 310 K | 133 µM |
| COC(=O)/C=C/c1ccc(OCCNS(=O)(=O)c2ccc(NC(C)=O)cc2)c(OC)c1 | CP (Tobacco mosaic virus, UniProt P69687) | binding, MST |  |  | 12.6 µM |
| CN(C)S(=O)(=O)c1ccc(S(=O)(=O)N2CCC(n3c(=O)[nH]c4ccccc43)CC2)cc1 | mfd (Escherichia coli, UniProt P30958) | binding, ITC |  |  | 83 µM |
| C[n+]1cc2cc3cc(ccc31)NC(=O)CCCCC(=O)Nc1ccc3c(c1)cc(c[n+]3C)C(=O)Nc1ccc3[nH]cc(c3c1)CCNC2=O | Pu22 G-quadruplex DNA | microscale thermophoresis |  |  | 0.09 ± 0.01 µM |
| CC[C@H](C)[C@@H]1NC(=O)[C@H](Cc2ccc(OC)cc2)NC(=O)CC2(CCCCC2)SSC[C@@H](C(=O)N2CCC[C@H]2C(=O)N[C@@H](CCCN)C(=O)N[C@@H](Cc2ccc(O)c(I)c2)C(N)=O)NC(=O)[C@H](CC(N)=O)NC(=O)[C@H]([C@@H](C)O)NC1=O | Oxytocin receptor (OXTR, Homo sapiens, UniProt P30559) | binding, radioligand |  | cell membranes | 9.2e-05 µM |
| O=C(COc1ccc2ccccc2c1)N[C@@H](Cc1cn(CCNC(=O)c2ccc(S[C@@H]3O[C@H](CO)[C@H](O)[C@H](O)[C@H]3O)cc2)nn1)C(=O)NCCO | lecA | binding, ITC |  |  | 7.6 µM |
| CO[C@H](C(=O)[C@@H](O)[C@@H](C)O)[C@@H]1Cc2cc3cc(O[C@H]4C[C@@H](O[C@H]5C[C@@H](O)[C@H](O)[C@@H](C)O5)[C@H](O)[C@@H](C)O4)c(C)c(O)c3c(O)c2C(=O)[C@H]1O[C@H]1C[C@@H](O[C@H]2C[C@@H](O[C@H]3C[C@](C)(O)[C@H](O)[C@@H](C)O3)[C@@H](O)[C@@H](C)O2)[C@H](O)[C@@H](C)O1 | human histone H2A | fluorescence quenching titration |  | pH 7.0, 25 °C, no Mg2+ | 0.96 ± 0.02 µM |

Repeated from above:
| Compound | target | assay | test system | setting | Kd |
| --- | --- | --- | --- | --- | --- |
| O=P(O)(O)O[C@@H]1[C@@H](O)[C@H](O)[C@H](O)[C@H](O)[C@H]1OP(=O)(O)O | Inositol 1,4,5-trisphosphate-gated calcium channel ITPR1, N-terminal region (Itpr1, Rattus norvegicus, UniProt P29994, del318-332/R568Q) | [3H]IP3 competition binding | N-terminal fragment R568Q | Tris-EDTA medium | 0.974 µM |
| [N-]=[N+]=N[C@H]1[C@H](O)[C@@H](O)[C@H](n2cc(CO[C@@H]3O[C@H](CO)[C@H](O)[C@H](O)[C@H]3O)nn2)O[C@@H]1CO | lecA | binding, ITC |  |  | 6.2 µM |
| Nc1ncnc2c1ncn2[C@@H]1O[C@@H]2COP(=O)(O)O[C@H]3[C@@H](O)[C@H](n4cnc5c(N)ncnc54)O[C@@H]3COP(=O)(O)O[C@H]2[C@H]1O | darB (Bacillus subtilis, UniProt O31698) | binding, ITC |  |  | 0.027 µM |
| CCOC(=O)C1=CN([C@@H]2O[C@H](CO)[C@@H](O)[C@H]2O)C=CC1 | SIRT5 (Homo sapiens, UniProt Q9NXA8) | binding, ITC |  |  | 8.3 µM |
